Experimental data collected from several papers.
Protocols differ between the studies behind these lines.

| Structure (SMILES) | cell line | test | setting | CC50 |
| --- | --- | --- | --- | --- |
| COc1cc([C@@H]2c3cc4c(cc3C=C(C=O)[C@H]2C(=O)N2CCCC2)OCO4)cc(OC)c1OC | mouse Splenocyte | cell growth or viability, resazurin | 48 h | 80.1 µM |
| CC1(C)CC[C@]2(CO)CC[C@]3(C)C(=CC[C@@H]4[C@@]5(C)CCCNC(C)(C)[C@@H]5CC[C@]43C)[C@@H]2C1 | C-33 A | cell viability, CellTiter-Glo | – | 0.78 µM |
| COc1ccc(C2OC(=O)c3ccc(-c4ccccc4)c(O)c32)c(OC)c1OC (centres unmarked) | J774.A1 | cell growth or viability, resazurin | 24 h | ≥ 510 µM |
| C[C@H]1[C@H](C)CC[C@]2(CO)CC[C@]3(C)C(=CC[C@@H]4[C@@]5(C)CCCNC(C)(C)[C@@H]5CC[C@]43C)[C@H]12 | primary HFF | cell viability, CellTiter-Glo | HSV-1 assay setting | 7.87 µM |
| Cc1ccc(S(=O)(=O)Nn2c3c(cc(-c4nc5ccccc5s4)c2=O)CCCCCC3)cc1 | BGM | cell growth or viability, trypan blue | – | 280 mg/L |
| COc1cc(C2c3cc4c(cc3C(C(C)C)C3COC(=O)C23)OCO4)cc(OC)c1OC (centres unmarked) | mouse Splenocyte | cell growth or viability, resazurin | 48 h | 0.4 µM |
| COc1ccc(C2OC(=O)c3ccc(C(C)C)c(O)c32)cc1OC (centres unmarked) | J774.A1 | cell growth or viability, resazurin | 24 h | ≥ 305 µM |
| N#C[C@]1(CO)O[C@@H](n2cnc3c(N)nc(N)nc32)C[C@@H]1O | HepG2.2.15 | cell growth or viability, CCK-8 | 14 days | 3.6 µM |
| Cc1ccc(S(=O)(=O)Nn2c3c(cc(-c4nc5ccccc5s4)c2=O)CCCC3)cc1 | BGM | cell growth or viability, trypan blue | – | 240 mg/L |
| C=C(C)[C@@H]1CCC=C2CC[C@]3(C)[C@H](CC[C@@H]4[C@@]5(C)CCCNC(C)(C)[C@@H]5CC[C@]43C)[C@H]21 | C-33 A | cell viability, CellTiter-Glo | – | 4.79 µM |
| Nc1nc2c(ncn2[C@H]2C[C@H](O)[C@@H](CO)/C2=C\F)c(=O)[nH]1 | HepG2.2.15 | cell growth or viability, CCK-8 | 14 days | 83 µM |
| CCCc1ccc2c(c1O)C(c1ccc(OC)c(OC)c1)OC2=O (centres unmarked) | J774.A1 | cell growth or viability, resazurin | 24 h | ≥ 152 µM |
| COc1cc(COC(=O)C2C(C=O)=Cc3cc4c(cc3C2c2cc(OC)c(OC)c(OC)c2)OCO4)cc(OC)c1OC (centres unmarked) | mouse Splenocyte | cell growth or viability, resazurin | 48 h | 51.3 µM |
| COc1ccc(OC(=O)/C=C/C#N)cc1 | J774.A1 | cell growth or viability, resazurin | 24 h | 38.8 µM |
| COc1ccc(C2OC(=O)c3ccc(C)c(O)c32)cc1OC (centres unmarked) | J774.A1 | cell growth or viability, resazurin | 24 h | ≥ 333 µM |
| C=C(C)[C@@H]1CC[C@]2(C(=O)n3ccnc3)CC[C@]3(C)[C@H](CC[C@@H]4[C@@]5(C)CCCNC(C)(C)[C@@H]5CC[C@]43C)[C@@H]12 | C-33 A | cell viability, CellTiter-Glo | – | 2.83 µM |
| COC(=O)C1C(C=NN=CC2=Cc3cc4c(cc3C(c3cc(OC)c(OC)c(OC)c3)C2C(=O)OC)OCO4)=Cc2cc3c(cc2C1c1cc(OC)c(OC)c(OC)c1)OCO3 (centres unmarked) | mouse Splenocyte | cell growth or viability, resazurin | 48 h | > 100 µM |
| COc1ccc(C2OC(=O)c3cc4c(c(O)c32)CCCC4)c(OC)c1OC (centres unmarked) | J774.A1 | cell growth or viability, resazurin | 24 h | ≥ 135 µM |
| CC1(C)NCCC[C@]2(C)[C@H]3CC=C4[C@@H]5C[C@@](C)(CO)CC[C@]5(C)CC[C@@]4(C)[C@]3(C)CC[C@@H]12 | primary HFF | cell viability, CellTiter-Glo | HSV-1 assay setting | 10.6 µM |
| COc1ccc(C2OC(=O)c3ccc(C)c(O)c32)c(OC)c1OC (centres unmarked) | J774.A1 | cell growth or viability, resazurin | 24 h | ≥ 151 µM |
| C=C(C)[C@@H]1CC[C@]2(C(N)=O)CC[C@]3(C)[C@H](CC[C@@H]4[C@@]5(C)CCCNC(C)(C)[C@@H]5CC[C@]43C)[C@@H]12 | primary HFF | cell viability, CellTiter-Glo | HSV-1 assay setting | 12.8 µM |
| COc1ccc(C2OC(=O)c3ccc(C(C)C)c(O)c32)c(OC)c1OC (centres unmarked) | J774.A1 | cell growth or viability, resazurin | 24 h | ≥ 140 µM |
| CC(C)(C)c1ccc(OC(=O)/C=C/C#N)cc1 | J774.A1 | cell growth or viability, resazurin | 24 h | 79.5 µM |

Repeated from above:
| Structure (SMILES) | cell line | test | setting | CC50 |
| --- | --- | --- | --- | --- |
| COc1ccc(C2OC(=O)c3ccc(-c4ccccc4)c(O)c32)c(OC)c1OC (centres unmarked) | J774.A1 | cell growth or viability, resazurin | 24 h | ≥ 510 µM |
| C[C@H]1[C@H](C)CC[C@]2(CO)CC[C@]3(C)C(=CC[C@@H]4[C@@]5(C)CCCNC(C)(C)[C@@H]5CC[C@]43C)[C@H]12 | primary HFF | cell viability, CellTiter-Glo | HSV-1 assay setting | 7.87 µM |
